# Assay results of several laboratories.
# Numbered parts are unrelated; each lists some results of a single study. Positions count from the first letter of the parent shown.

# Sample 1
# Target: Interferon regulatory factor 5, full length, phosphomimetic (IRF5, Homo sapiens, UniProt Q13568-2, residues 1-514, S451D/S453D/S456D/S462D)
# Technique: protein-binding microarray
# Form: double-stranded DNA, one strand shown
# Sample: in vitro
# Concentration: 940 nM top
# Notes: 60-bp whole probe
# Added: salmon DNA 0.4 mg/ml
# Relative to: random background probes
# Reading: higher = stronger binding
# Shared flanks, not repeated: GCCTAGCAC … GTCTTGATTCGCTTGACGCTGCTG
Strand,fitted relative affinity [z-score]
TGAGCTTACAATATAAAAGGGTGCTAG,-0.353
TTAGGTTTCGGTCTCGGCTAGTGCTAG,15.3
TCATTTATATGCTATGTAACTGTGCTA,0.222
TAAGGTTTCGGTTTCGGTTAGTGCTAG,15.4
GAGGGTTTCGACTTTCGGGACGTGCTA,5.93
TTAGGACTGGACACTGTGTTAGTGCTA,-0.484
GACGATCGCAGTCTCGAGACGTGCTAG,0.677
TCACTCCTCCAGGTTCTCACTGTGCTA,0.821
ACTGCTCTGTTGCCTGGTCCTGTGCTA,0.42
CTAGATATCAGTTTCGATTAGTGCTAG,8.38
GACGGTTCCGGTTTTGGGACGTGCTAG,2.68
GACGGTATCCTTCTCCTAACGTGCTAG,0.589
TTTCCTTTACATTCCCCATTGTGCTAG,3.01
TTAGATGTCAGTCTCGATTAGTGCTAG,2.65
GACGGATTGCTTCTCCTGACGTGCTAG,-0.164
GACGGTCTCCTTCTCTTGACGTGCTAG,0.653
GACGAACTGCTACTGCTGACGTGCTAG,-0.65
GACGCACTGGGGTTTCGGGACGTGCTA,2.31
TCAGAACTGGGGTTTCGATTAGTGCTA,5.15
TCATTTCAGTTTCTCTTACTGTGCTAG,3.93

# Sample 2
# Target: Ras GTPase-activating protein-binding protein 1, RRM domain (G3BP1, Homo sapiens, UniProt Q13283)
# Chain of UniProt Q13283 (whole entry, looked up): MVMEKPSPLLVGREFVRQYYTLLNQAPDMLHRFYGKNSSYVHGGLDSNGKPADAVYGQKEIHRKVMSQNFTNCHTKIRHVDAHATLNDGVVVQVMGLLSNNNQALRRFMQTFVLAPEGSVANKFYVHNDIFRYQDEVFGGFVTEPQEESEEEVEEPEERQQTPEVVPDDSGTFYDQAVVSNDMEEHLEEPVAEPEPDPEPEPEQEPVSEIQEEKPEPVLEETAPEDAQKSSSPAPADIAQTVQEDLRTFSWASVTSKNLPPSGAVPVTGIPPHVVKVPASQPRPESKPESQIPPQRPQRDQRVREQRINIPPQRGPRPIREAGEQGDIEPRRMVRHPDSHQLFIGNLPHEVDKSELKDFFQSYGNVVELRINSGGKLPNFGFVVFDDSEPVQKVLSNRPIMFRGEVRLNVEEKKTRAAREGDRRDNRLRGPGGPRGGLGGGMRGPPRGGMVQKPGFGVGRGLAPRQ
# Technique: RNA Bind-n-Seq
# Form: RNA
# Sample: in vitro
# Concentration: 1 µM
# Notes: whole 134-nt RNA, ends assumed
# Added: 150 mM KCl
# Relative to: input library
# Reading: higher = stronger binding
Strand,log2 enrichment
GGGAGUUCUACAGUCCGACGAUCUCCUGUGCUACACAUCGUAUGUACCGAAUCGGGGAGGGGUUUUUUUGGGGUUUUUGGGGAAAGUAUUAUGUUACGCCGUUCGGAUCUGCAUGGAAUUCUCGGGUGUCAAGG,0.676
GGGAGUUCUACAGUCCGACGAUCGUCCUGUGCUACACAUCGUAUGUACCGAAUCGGGAAAAAAAGGGAAAAAGGGAAAGGGAAAGUAUUAUGUUACGCCGUUCGGAUCUGCACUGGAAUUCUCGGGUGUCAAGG,0.397
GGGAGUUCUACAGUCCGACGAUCGUCCUGUGCUACACAUCGUAUGUACCGAAUCGGCCCCCGGGCCCCCGGGGCCCCCGGGAAAGUAUUAUGUUACGCCGUUCGGAUCUGCACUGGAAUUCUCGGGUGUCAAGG,-0.348
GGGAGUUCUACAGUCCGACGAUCAGUCCUGUGCUACACAUCGUAUGUACCGAAUCGGGGUGGGGUUUGGGGUUUUUGGGGAAAGUAUUAUGUUACGCCGUUCGGAUCUGCACUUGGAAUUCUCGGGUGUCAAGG,1.07
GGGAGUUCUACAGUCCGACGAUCAGUCCUGUGCUACACAUCGUAUGUACCGAAUCGGGUUUUUGGGUUUUUUUGGGUGGGAAAGUAUUAUGUUACGCCGUUCGGAUCUGCACUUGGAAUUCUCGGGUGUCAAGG,0.385
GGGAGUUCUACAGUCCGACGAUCAAGUCCUGUGCUACACAUCGUAUGUACCGAAUCGGCCCCCGGGCCCCCGGCCCCCGGAAAGUAUUAUGUUACGCCGUUCGGAUCUGCACUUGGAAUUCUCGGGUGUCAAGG,-0.271
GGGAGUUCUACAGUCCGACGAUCCUCAAGUCCUGUGCUACACAUCGUAUGUACCGAAUCGGGUUUGGGAGGGAGGGAAAGUAUUAUGUUACGCCGUUCGGAUCUGCACUUCCAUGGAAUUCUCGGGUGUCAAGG,0.675
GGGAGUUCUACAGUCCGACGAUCACCAUGCAGGUGGGCAUCUUUGGGAAGUGGGGCAAGGGGGGGAUAGGGAGGGGGGUAACACUUUGGGAACAGGUGGUCUCAGGUCGUUUCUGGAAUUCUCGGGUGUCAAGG,0.788
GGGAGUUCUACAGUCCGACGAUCCACAGACAACACGCACCCACACACACACAGAGGGAAGGGGUUGGGAUGGGGACAGGGUGCACAGCAGGGCGGGGUAGGACCCCAGCCCCUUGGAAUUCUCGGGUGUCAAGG,-0.0233
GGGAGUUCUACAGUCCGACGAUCCCUGUGCUACACAUCGUAUGUACCGAAUCGGGGAAAAAAAGGGGAGGGGAAAAAAAGGGGAAAGUAUUAUGUUACGCCGUUCGGAUCUGCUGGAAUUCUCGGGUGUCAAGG,0.286
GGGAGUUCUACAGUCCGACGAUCGCAGGAAGUAAAAACAAAUGGAAAUGCUUCGGAUAGUGGCAGGGGUGGGGGUUGCUAAGGAAAGGGCGGGAUGGGAGUGGGUAAAGAGUUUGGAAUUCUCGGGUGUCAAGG,0.701
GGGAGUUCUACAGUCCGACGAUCCAAGUCCUGUGCUACACAUCGUAUGUACCGAAUCGGAAAGGGAAAGGGGAAAGGGGAAAGUAUUAUGUUACGCCGUUCGGAUCUGCACUUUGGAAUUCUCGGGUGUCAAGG,-0.13
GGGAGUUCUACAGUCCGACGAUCACCAUGCAGGUGGGCAUCUUUGGGAAGUGGGGCAAGGGGGGGAUAGGGAGGGGGGUAACACUUUGGGAACAGGUGGUCCAAAGUCGUUUCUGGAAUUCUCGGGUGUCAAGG,-0.745
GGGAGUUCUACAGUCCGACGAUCCACAGACAAGACGCACCCACACAGACACAGAGGGAAGGGGUUGGGAUGGGGACAGGGUGCACAGCAGGGCGGGGUAGGACCCCAGCCCCUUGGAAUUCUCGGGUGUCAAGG,-0.0621

# Sample 3
# Target: RNA binding protein fox-1 homolog 2, RRM domain, GST-SBP tag (RBFOX2, Homo sapiens, UniProt O43251-10, residues 100-194)
# Technique: RNA Bind-n-Seq
# Form: RNA
# Sample: in vitro
# Concentration: 365 nM
# Notes: natural RNA segment, single round, ends assumed
# Relative to: no-protein control
# Reading: higher = stronger binding
# Target sequence (chain): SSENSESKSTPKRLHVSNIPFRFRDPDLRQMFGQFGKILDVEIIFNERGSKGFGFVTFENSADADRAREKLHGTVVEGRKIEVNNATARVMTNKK
Strand,RBNS enrichment (R)
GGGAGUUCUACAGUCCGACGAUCAAGAAAAGGACACAGAAAGGCGAACGGAAGCGAUAACCUUGGCCCACUCUGCUCCUUCCACCCAUGAAUUGUGUGUCUGUGUAUUUAAGAGAACUGAGACUAAUGUAUUUUGGAAUUCUCGGGUGCCAA,0.63
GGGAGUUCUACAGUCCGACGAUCCCUUCCCUGGAGAGAAAGUGUGUGAUUUCUCUCCCACCUCCUUCCCCCCACCAGACCUUUGCUGGGCCUAAAGGUCUUGGCCAUGGGGACGCCCUCAGUCUAGGGAUCUGUGGAAUUCUCGGGUGCCAA,1.21
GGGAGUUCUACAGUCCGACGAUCGGAAACGACCAGGGCUGUGAAGAUCUACAGAGGAAGUACUCCAGUGUGGGGGAGGCAAGGGAAGAGGACGAAAAUGAUGAGAAUGACACUGAGGUCAUUGUUUAGAGCAGUGGAAUUCUCGGGUGCCAA,2.04
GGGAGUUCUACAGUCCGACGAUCGGAGACUCACUCUGUUGCCCAGACUGGAGUGCAGUGGCACGAUCUUGGCUUACUACAACCUCCGCCUCCUGGGUUCAAGCGAUCCUCCUGCCUCAGCCCCCCACUAGCUGUGGAAUUCUCGGGUGCCAA,0.581
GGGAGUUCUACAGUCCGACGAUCAGUGACUUUAUGUACUUAUAUUAACAGCUGGAAAUAGGUUGUUGGGUUUUGAGCAGGCUGUUAUAGUGAGGAAUGUUCAUUUUUAAAUGUUCCUAACAGAUUUUGCUUUUUGGAAUUCUCGGGUGCCAA,0.411
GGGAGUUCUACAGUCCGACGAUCGUUUCUUGUAAAGGAAGCCAGAGUUGACAGUACAAAGGGUCGUGGCCAGCCCUGCAGCUUCAGCACCUGCCCCACCCAGAGUGGGAGUCAGGUGGAGCCACCUGCUGGGCUGGAAUUCUCGGGUGCCAA,0.214
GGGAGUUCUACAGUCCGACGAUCAUUAUCCAGUCGGUCCCAUCUAUCCACCUGGCUCCACAGUGCUGGUGGAAGGAGGGUAUGAUGCAGGUGCCAGAUUUGGAGCUGGGGCUACUGCUGGCAACAUUCCUGCUUGGAAUUCUCGGGUGCCAA,0.251
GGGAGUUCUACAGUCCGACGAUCUGCAUAGCCAGGAUGACGGCUUUCAUGUCCCAGAGACCUGUUGUGCUGUGUAUUUUGAUUUCCUGUGUAUGCAAAUGUGUGUAUUUACCAUUGUGUAGGGGGCUGUGUCUUGGAAUUCUCGGGUGCCAA,0.449
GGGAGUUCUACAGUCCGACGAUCGCAGCGAUACCAGAGCCACCCGGACGCCGCUGUGCAGUGCGUGGCCUGCGGCCGGGCUGCCCUUCGCUGCCAGGACACCUGCCCCAGCGCGGCUUGGCCGCCAUCCGGGAUGGAAUUCUCGGGUGCCAA,0.174
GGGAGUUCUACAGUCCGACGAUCCCCACCGCGUCUUGCCUUUGUGCUGACCCCGCGGGGCUGCGGCCGGCAGCCACUCUGCGUCUCUCACCUGCCAGGCCUGCGUGGCCUUAGGGUUGUUCCUGUUCUUUUAGUGGAAUUCUCGGGUGCCAA,0.314
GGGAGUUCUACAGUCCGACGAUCGGCAGGAUUGUACAAUGAGCAACUAUCAGAUUAUUCCUUUCAGUGGUUCUUAUGGCAUCUAAAUUACUGAAUAAAUUAUUAAUCCAUUAAUCAGUGAAUCAAAUUAUGAUUGGAAUUCUCGGGUGCCAA,0.774
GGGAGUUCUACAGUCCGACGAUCAUCAUCACAGAUACGCAGUGUUAUGCAUGUGUAUAGAAGUGUGUGCACCAGCAUCAAACAUUGUGUGUGUGGAAGGGAAGAAGCCUGUCCAUUCUAAACGCAGUUGCCAGUGGAAUUCUCGGGUGCCAA,0.892

# Sample 4
# Target: Sal-like protein 4, full length isoform B (SALL4, Homo sapiens, UniProt Q9UJQ4-2, residues 1-616)
# Technique: universal PBM
# Form: double-stranded DNA, one strand shown
# Sample: in vitro
# Concentration: not given
# Notes: 8-mer, flanks averaged, mean of replicates
# Reading: higher = stronger binding
Strand,E-score
AATGCGGT,-0.18
CTACGACC,-0.192
CAATACGG,-0.116
GATACTGC,0.059
TTACCCAA,0.065
AATAGAAT,0.28
CTACGGAG,-0.157
AATGAAAA,0.336
AACGAATT,0.164
AGACCGGG,-0.336
CACCCTCC,-0.272
CGCTGAGA,-0.275
ACATAGCT,0.0936
TCTAGGAA,0.103
TAGACACA,0.137
AGTCCCTC,-0.203
AAGCAAAC,0.0828
ATTTAACC,0.164
AATGGCTA,0.139
CGGCCGAC,-0.196
GCTAATAA,0.239
ACACATGG,0.0406
AATGTCGG,-0.0581
CGGTTCAA,-0.184
ACACTAAC,0.0971

# Sample 5
# Target: TAR DNA-binding protein 43, full length, His tag (TARDBP, Homo sapiens, UniProt Q13148, residues 1-414)
# Technique: RNA Bind-n-Seq
# Form: RNA
# Sample: in vitro
# Concentration: 20 nM
# Notes: 6-mer, flanks averaged, single round
# Added: 150 mM LiCl
# Relative to: input library
# Reading: higher = stronger binding
Strand,6-mer enrichment (R)
UCCUUA,0.93
UCGCAC,0.837
GGAUGU,1.24
UUGUGC,1.16
ACGUAU,0.933
CUAUUU,1.11
AUUUAU,1.11
AGGAUC,0.865
CGAGCC,0.887

# Sample 6
# Target: CCND3, cyclin fold, Cln2 fusion (human)
# Technique: yeast growth competition, sequencing
# Sample: yeast
# Notes: weak parent motif
# Relative to: not given
# Reading: higher = stronger binding
# Starting sequence: CDC25A docking peptide (human); PPHRRRLLFACSP
Variant,normalised enrichment score
A10K,0.105
R5S,0.101
L7D,0.0817
R6G,0.0943
P1E,0.0882
L8V,0.157
L7Y,0.137
C11M,0.0834
R6K,0.124
F9N,0.162
P1I,0.169
S12M,0.114
F9G,0.206
F9T,0.134
C11H,0.11
A10T,0.138
R4C,0.163

# A few entries again (sample 6):
Variant,normalised enrichment score
F9G,0.206
S12M,0.114
A10T,0.138
L7D,0.0817
F9N,0.162
C11H,0.11
